{"data": "Experimental data pooled from the literature", "note": "Parts stem from different laboratories: compare values within a part only."}
{"data": "Sample 1", "target": "RING finger protein unkempt homolog, zinc fingers 1-6, GST-SBP tag (UNK, Homo sapiens, UniProt Q9C0B0, residues 30-357)", "method": "RNA Bind-n-Seq", "form": "RNA", "medium": "in vitro", "concentration": "not given", "setting": "RNA with constant flanks, human and mouse sites, ends assumed", "baseline": "input RNA pool", "reading": "higher = stronger binding", "constant ends, left off below": "GGGAGUUCUACAGUCCGACGAUC … CAACAGAGGAUUGAGCAUCA", "sequence of UniProt Q9C0B0 (30-357, looked up)": "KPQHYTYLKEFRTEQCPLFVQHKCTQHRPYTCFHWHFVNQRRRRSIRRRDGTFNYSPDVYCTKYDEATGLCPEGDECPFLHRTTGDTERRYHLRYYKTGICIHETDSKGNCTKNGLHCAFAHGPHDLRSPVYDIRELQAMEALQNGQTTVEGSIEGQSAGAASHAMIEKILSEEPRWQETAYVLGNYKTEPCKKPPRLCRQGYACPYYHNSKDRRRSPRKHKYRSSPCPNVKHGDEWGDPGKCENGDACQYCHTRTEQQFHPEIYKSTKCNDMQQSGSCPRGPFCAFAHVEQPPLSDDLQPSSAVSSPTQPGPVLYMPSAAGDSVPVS"}
{"Strand": "GAUUAUACGUGGAAUUUACUAAAAGCUGGGAAAAUACCAGAGGAAUUUAAUGUAUUUAAUUUAAUACAAGAAAUGAGAACACAAAGGCAUUCUGCAGUACAAACAAAGGAGCAAUAUGAA", "bound/input enrichment [ratio]": 0.228}
{"Strand": "UAAUUUGGCUGCAAUUGCAUGAAAUCCCAAUGGUGUAGACCAGUGGCGAUGGAUCUAGGAGUUUACCAACUGAGACAUUUUUCCAUUUCUUUCUUGUCGUCUUUGCUGGGAACCGAAAAC", "bound/input enrichment [ratio]": 0.304}
{"Strand": "AAGGCUGAGUGUGGCAAAGCCUUCGUCUCCAAGUAUAAGCUGAUGAGACACAUGGCCACACACUCGCCACAGAAGAUUCACCAGUGUACUCACUGUGAGAAGACAUUCAACCGGAAGGAC", "bound/input enrichment [ratio]": 0.135}
{"Strand": "AACUUAUUGGAUGCAGUAUAUUCAUUUUGCUUGAUGAAUUACUUUCCCCUGGCUCCUUUUAAUCAGCUUCUGCAAAAAGACAUCAUCAGUGAGCUGCUGACAUCAGAUGACAUGAAGAAU", "bound/input enrichment [ratio]": 0.138}
{"Strand": "CCCUGUACCCGAAGAUGAGACACCCAUGUCCUUUCCCUCGGUCACAGGUAGCACCUUGGAUGUCACUCAUGUCUCUCGGGAACCUCACUUUUGAGUGUUAAUGAGCCCCUAAGUGCUGUU", "bound/input enrichment [ratio]": 0.14}
{"Strand": "GAUCCCUUGAUGGCCCCAGAAUCCCAUAUAUUAGCUUCUAACACCAUGGAGACCCAUAUAUUAGCAUCCAACACCAUGGACUCCCAAAUGCUAGCGUCCAACACCAUGGACUCCCAGAUG", "bound/input enrichment [ratio]": 1.77}
{"Strand": "CUUGCAGUGAGGAAAAGAACAAUUAUUGCUCUUGGCCACCUAGUUAUGAGCUGCGGAAAUAUAGUUUUUGUAGACCUUAUUGAACAUCUGUUGUCAGAGUUGUCCAAAAAUGACUCCAUG", "bound/input enrichment [ratio]": 0.582}
{"Strand": "GAACCUUGGGUGAUUUGUUCUGUAUCAGAAGACAAUAUCAUGCAAGUGUGGCAAAUGGAGUUAGUCCUUGACCACUAGUUUGAUGCCAUCUCCAUUUUGGGUGACCUGUUUCACCAGCAG", "bound/input enrichment [ratio]": 0.558}
{"data": "Sample 2", "target": "Replicase polyprotein 1ab, polymerase (rep, Severe acute respiratory syndrome coronavirus 2, UniProt P0DTD1)", "observed": "enzyme activity", "mode": "inhibitor", "concentration": "20 µM"}
{"SMILES": "CN1CCc2cc(Cl)c(O)cc2[C@@H](c2ccccc2)C1", "inhibition [%]": 1.13}
{"SMILES": "CC(C)Oc1cccc(CC(=O)N2CCC[C@](CC[N+]34CCC(c5ccccc5)(CC3)CC4)(c3ccc(Cl)c(Cl)c3)C2)c1", "inhibition [%]": 0.94}
{"SMILES": "CCCCCCCCCCCCC/C=C/[C@@H](O)[C@@H](N)COP(=O)([O-])OCC[N+](C)(C)C", "inhibition [%]": -1.22}
{"SMILES": "COC(=O)c1cc(OC)c2c(c1-c1c(C(=O)OC)cc(OC)c3c1OCO3)OCO2", "inhibition [%]": -0.48}
{"SMILES": "Cc1cccc(Nc2nc(-c3ccncc3)cs2)c1", "inhibition [%]": -5.59}
{"SMILES": "COc1ccc(Cl)cc1[C@]1(F)C(=O)Nc2cc(C(F)(F)F)ccc21", "inhibition [%]": 5.66}
{"SMILES": "COCC1(CO)C(=O)C2CCN1CC2 (centres unmarked)", "inhibition [%]": 7.24}
{"SMILES": "COc1ccc(/C=C2\\CCCN=C2c2cccnc2)c(OC)c1", "inhibition [%]": -1.63}
{"SMILES": "CCCNC(=O)NS(=O)(=O)c1ccc(Cl)cc1", "inhibition [%]": -0.46}
{"SMILES": "CC(=O)NC[C@H]1CN(c2ccc(N3CCSCC3)c(F)c2)C(=O)O1", "inhibition [%]": -0.92}
{"SMILES": "O=C(O)c1ccc(SSc2ccc(C(=O)O)cn2)nc1", "inhibition [%]": -0.12}
{"SMILES": "O=c1c(-c2ccc(O)cc2)coc2cc(O)cc(O)c12", "inhibition [%]": 8.12}
{"SMILES": "CC(C)c1ccc2c(c1)CC[C@H]1[C@](C)(CN)CCC[C@]21C", "inhibition [%]": 8.33}
{"SMILES": "c1ccc2nc(N3CCNCC3)ccc2c1", "inhibition [%]": 2.31}
{"SMILES": "O=c1[nH]nc(Sc2ncc([N+](=O)[O-])s2)n1-c1ccc2c(c1)OCCO2", "inhibition [%]": -14.3}
{"SMILES": "C=CC(=O)Nc1cc2c(Nc3ccc(F)c(Cl)c3)ncnc2cc1C#CC(C)(C)N1CCN(C)CC1", "inhibition [%]": -2.69}
{"SMILES": "CN(C)CCCO[C@@H]1[C@H]2OC(C)(C)O[C@H]2O[C@@H]1[C@H](O)CO", "inhibition [%]": -4.34}
{"SMILES": "CCCCNc1ccc(C(=O)OCCN(C)C)cc1", "inhibition [%]": 24.8}
{"SMILES": "Cc1ccc(Nc2c(F)cccc2Cl)c(CC(=O)O)c1", "inhibition [%]": 1.7}
{"data": "Sample 3", "target": "Replicase polyprotein 1ab, main protease (rep, Severe acute respiratory syndrome coronavirus 2, UniProt P0DTD1)", "observed": "enzyme activity", "mode": "inhibitor", "concentration": "20 µM", "setting": "primary screen"}
{"SMILES": "CC(=O)[O][Pt]([NH2])([Cl])([Cl])([NH]C1CCCCC1)[O]C(C)=O", "inhibition [%]": 95.9}
{"SMILES": "S=c1[nH]nc(-c2ccccc2)o1", "inhibition [%]": 63.5}
{"SMILES": "CCCCC1C(=O)N(c2ccccc2)N(c2ccc(O)cc2)C1=O (centres unmarked)", "inhibition [%]": 62.9}
{"SMILES": "CN(C)S(=O)(=O)c1cccc(-n2sc3ccccc3c2=O)c1", "inhibition [%]": 101}
{"data": "Sample 4", "organism": "Vesicular stomatitis virus", "observed": "pseudovirus infection", "method": "FDA-approved drug library screen", "concentration": "concentration not given", "setting": "SARS-CoV-2 spike pseudotype", "baseline": "vehicle"}
{"Compound": "COc1ccc2[n-]c([S@@+]([O-])Cc3ncc(C)c(OC)c3C)nc2c1.[Na+]", "GFP-positive cells [%]": 93.2}
{"Compound": "CNC(=C[N+](=O)[O-])NCCSCc1ccc(CN(C)C)o1.Cl", "GFP-positive cells [%]": 80.6}
{"Compound": "NC[C@@H]1O[C@H](O[C@H]2[C@@H](O)[C@H](O[C@@H]3[C@@H](O)[C@H](N)C[C@H](N)[C@H]3O[C@H]3O[C@H](CN)[C@@H](O)[C@H](O)[C@H]3N)O[C@@H]2CO)[C@H](N)[C@@H](O)[C@@H]1O.O=S(=O)(O)O", "GFP-positive cells [%]": 89.7}
{"Compound": "C[C@@H]1CCN(C(=O)CC#N)C[C@@H]1N(C)c1ncnc2[nH]ccc12.O=C(O)CC(O)(CC(=O)O)C(=O)O", "GFP-positive cells [%]": 77.8}
{"Compound": "C[C@@H]1[C@H](O)[C@@H](C)/C=C/C=C/CC/C=C/C=C/C=C/C=C/[C@H](O[C@H]2O[C@@H](C)[C@H](O)[C@@H](N)[C@H]2O)C[C@@H]2O[C@](O)(C[C@@H](O)[C@H](O)CC[C@@H](O)C[C@@H](O)C[C@@H](O)CC(=O)O[C@H]1C)C[C@H](O)[C@H]2C(=O)O", "GFP-positive cells [%]": 95.8}
{"data": "Sample 5", "target": "Sal-like protein 4, full length isoform A (SALL4, Homo sapiens, UniProt Q9UJQ4, residues 1-1053)", "method": "universal PBM", "form": "double-stranded DNA, one strand shown", "medium": "in vitro", "concentration": "600 nM", "setting": "8-mer, flanks averaged, mean of replicates", "reading": "higher = stronger binding", "sequence of UniProt Q9UJQ4 (whole entry, looked up)": "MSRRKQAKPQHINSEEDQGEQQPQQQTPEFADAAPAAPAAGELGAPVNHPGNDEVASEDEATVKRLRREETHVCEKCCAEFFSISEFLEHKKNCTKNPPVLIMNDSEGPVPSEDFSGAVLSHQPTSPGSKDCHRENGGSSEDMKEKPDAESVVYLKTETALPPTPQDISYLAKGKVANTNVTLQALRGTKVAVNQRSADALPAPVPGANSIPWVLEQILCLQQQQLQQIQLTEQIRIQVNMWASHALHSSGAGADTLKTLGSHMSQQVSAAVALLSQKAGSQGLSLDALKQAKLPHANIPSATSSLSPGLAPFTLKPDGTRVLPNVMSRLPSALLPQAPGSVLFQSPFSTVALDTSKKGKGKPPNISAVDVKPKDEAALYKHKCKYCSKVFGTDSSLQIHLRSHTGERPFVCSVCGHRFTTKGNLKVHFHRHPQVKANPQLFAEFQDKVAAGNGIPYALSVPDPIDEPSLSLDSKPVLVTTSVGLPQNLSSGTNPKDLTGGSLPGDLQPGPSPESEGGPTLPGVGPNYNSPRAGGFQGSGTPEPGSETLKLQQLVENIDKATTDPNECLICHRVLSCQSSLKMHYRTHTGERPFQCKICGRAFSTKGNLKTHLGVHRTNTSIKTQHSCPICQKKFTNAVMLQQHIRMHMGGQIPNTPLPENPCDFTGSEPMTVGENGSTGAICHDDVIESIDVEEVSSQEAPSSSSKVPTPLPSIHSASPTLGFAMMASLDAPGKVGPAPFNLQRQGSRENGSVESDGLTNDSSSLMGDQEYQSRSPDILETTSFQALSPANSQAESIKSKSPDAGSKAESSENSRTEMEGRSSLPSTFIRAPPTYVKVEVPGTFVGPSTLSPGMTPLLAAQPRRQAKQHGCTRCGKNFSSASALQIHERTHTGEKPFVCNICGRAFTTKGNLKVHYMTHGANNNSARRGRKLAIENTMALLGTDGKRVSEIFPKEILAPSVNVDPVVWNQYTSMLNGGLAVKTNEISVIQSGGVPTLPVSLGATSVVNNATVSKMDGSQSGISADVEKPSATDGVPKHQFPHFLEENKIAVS"}
{"Strand": "AACCCAGT", "E-score": -0.136}
{"Strand": "AACGAGCC", "E-score": -0.157}
{"Strand": "GTGAATCA", "E-score": 0.0148}
{"Strand": "ACAGGAGA", "E-score": 0.0221}
{"Strand": "GCGCTCTA", "E-score": -0.126}
{"Strand": "ATGATTAA", "E-score": 0.389}
{"Strand": "ACGGAAAT", "E-score": 0.117}
{"Strand": "AGACGCCG", "E-score": -0.246}
{"note": "Some of these lines once more (sample 5):"}
{"Strand": "ACAGGAGA", "E-score": 0.0221}
{"Strand": "AACCCAGT", "E-score": -0.136}
{"Strand": "ACGGAAAT", "E-score": 0.117}
{"Strand": "GCGCTCTA", "E-score": -0.126}
{"Strand": "GTGAATCA", "E-score": 0.0148}
{"Strand": "ATGATTAA", "E-score": 0.389}
